Results gathered from unrelated publications.
Protocols differ between the studies behind these lines. Values joined by “and” are separate records of one study, mostly repeats; a detail may differ. ± marks the error that the study gave.

SMILES	test	test system	setting	scale	quantity	result
CSCC[C@H](N)C(=O)N[C@@H](C)C(=O)N[C@@H](CCCNC(=N)N)C(=O)N[C@@H](CCCNC(=N)N)C(=O)N[C@@H](CC(=O)O)C(=O)N[C@@H](CCCCN)C(=O)N[C@H](C(=O)N[C@@H](CC(=O)O)C(=O)N[C@@H](Cc1ccccc1)C(=O)N[C@@H](C)C(=O)N[C@@H](CCCNC(=N)N)C(=O)N[C@@H](CCCNC(=N)N)C(=O)N[C@@H](CCCNC(=N)N)C(=O)N[C@@H](CCCNC(=N)N)C(=O)NCCCCCC(=O)NCCCCC(NC(=O)CCCCCNC(=O)[C@H](CCCNC(=N)N)NC(=O)[C@H](CCCNC(=N)N)NC(=O)[C@H](CCCNC(=N)N)NC(=O)[C@H](CCCNC(=N)N)NC(=O)[C@H](C)NC(=O)[C@H](Cc1ccccc1)NC(=O)[C@H](CC(=O)O)NC(=O)[C@@H](NC(=O)[C@H](CCCCN)NC(=O)[C@H](CC(=O)O)NC(=O)[C@H](CCCNC(=N)N)NC(=O)[C@H](CCCNC(=N)N)NC(=O)[C@H](C)NC(=O)[C@@H](N)CCSC)[C@@H](C)O)C(=O)NCCCCC(NC(=O)C(CCCCNC(=O)CCCCCNC(=O)[C@H](CCCNC(=N)N)NC(=O)[C@H](CCCNC(=N)N)NC(=O)[C@H](CCCNC(=N)N)NC(=O)[C@H](CCCNC(=N)N)NC(=O)[C@H](C)NC(=O)[C@H](Cc1ccccc1)NC(=O)[C@H](CC(=O)O)NC(=O)[C@@H](NC(=O)[C@H](CCCCN)NC(=O)[C@H](CC(=O)O)NC(=O)[C@H](CCCNC(=N)N)NC(=O)[C@H](CCCNC(=N)N)NC(=O)[C@H](C)NC(=O)[C@@H](N)CCSC)[C@@H](C)O)NC(=O)CCCCCNC(=O)[C@H](CCCNC(=N)N)NC(=O)[C@H](CCCNC(=N)N)NC(=O)[C@H](CCCNC(=N)N)NC(=O)[C@H](CCCNC(=N)N)NC(=O)[C@H](C)NC(=O)[C@H](Cc1ccccc1)NC(=O)[C@H](CC(=O)O)NC(=O)[C@@H](NC(=O)[C@H](CCCCN)NC(=O)[C@H](CC(=O)O)NC(=O)[C@H](CCCNC(=N)N)NC(=O)[C@H](CCCNC(=N)N)NC(=O)[C@H](C)NC(=O)[C@@H](N)CCSC)[C@@H](C)O)C(N)=O)[C@@H](C)O (stereo partly drawn)	–	C57BL/6 mouse female, heart	dose not given, 6 h	relative to: total	mean tissue distribution	0.88%
O=C(c1cc(Cc2n[nH]c(=O)c3ccccc23)ccc1F)N1CC(CNC2CC2)C1	–	female ICR mouse, plasma	intravenous, 20 mg/kg	–	plasma clearance	101 mL/min/kg
CC1COC2=C1C(=O)C(=O)c1c2ccc2c1C(OC(=O)CNC(=O)C(N)CCC(=O)O)CCC2(C)C (mixture of isomers)	–	saline	24 h, 25 °C	–	equilibrium solubility	5140 µg/mL
C=Cc1c(C)c2cc3nc(c(CC(=O)[O-])c4[n-]c(cc5nc(cc1[n-]2)C(C)=C5CC)c(C)c4C(=O)[O-])C(CCC(=O)[O-])C3C.[Cu+2].[Na+].[Na+].[Na+] (stereo not drawn)	–	Wistar rat, female	oral, 250 mg/kg daily, 28 days	–	blood urea nitrogen	22.3 ± 3.39 mg/dL
CCCCCCCCCCCC(=O)C(C)C(=O)N1CCC[C@H]1C(=O)NC(C)(C)C(=O)NC(C)(C)C(=O)NC(C)(C)C(=O)N[C@](C)(CC)C(=O)NCCC(=O)N[C@@H](C)C(=O)N[C@](C)(CC)C(=O)N[C@@H](C)C(=O)N[C@@H](CC(C)C)C(=O)N[C@](C)(CC)C(=O)NCCC(=O)N[C@@H](C)C(=O)N[C@](C)(CC)C(=O)NCCC(=O)N[C@@H](C)C(=O)NC(C)(C)C(=O)NC(C)(C)C(=O)NC(C)(C)C(=O)N[C@@H](C)C(=O)N[C@@H](CC(=O)O)C(=O)O (stereo partly drawn)	LC-MS	buffer with trypsin	40 µM, 540 min, pH 7.5, 37 °C	relative to: 0 h	remaining intact peptide	62% and 64.4% and 53.6%
C=Cc1c(C)c2cc3nc(c(CC(=O)O)c4[nH]c(cc5nc(cc1[nH]2)C(C)=C5CC)c(C)c4C(=O)O)[C@@H](CCC(=O)NCCCC[C@H](NC(C)=O)C(=O)N[C@@H](Cc1ccccc1)C(=O)N[C@@H](Cc1ccccc1)C(=O)N[C@H](C(=O)N[C@@H](CC(C)C)C(=O)N[C@@H](CCCCN)C(=O)N[C@@H](CO)C(=O)NCC(=O)N[C@@H](CCC(N)=O)C(=O)N[C@@H](Cc1ccc(O)cc1)C(=O)N[C@@H](C)C(=O)N[C@@H](CO)C(=O)N[C@@H](Cc1ccc(O)cc1)C(=O)N[C@@H](Cc1c[nH]cn1)C(=O)N[C@@H](CS)C(=O)N[C@@H](Cc1c[nH]c2ccccc12)C(=O)N[C@@H](CS)C(=O)N[C@@H](Cc1c[nH]c2ccccc12)C(=O)N[C@@H](CCCNC(=N)N)C(=O)N[C@@H](CC(=O)O)C(=O)N1CCC[C@H]1C(=O)NCC(=O)N[C@@H](CCCNC(=N)N)C(=O)N[C@@H](CO)C(=O)NCC(=O)NCC(=O)N[C@@H](CO)C(=O)N[C@@H](CCCCN)C(N)=O)C(C)C)[C@@H]3C	–	mouse, blood	12 h	–	blood concentration	55.6 µg/mL and 67.4 µg/mL
CCCCCCCCCCCCCCCC(=O)N[C@@H](CCC(=O)NCCOCCOCCC(=O)NCCOCCOCCC(=O)NCCCC[C@H](NC(=O)[C@H](CC(=O)O)NC(=O)[C@H](CC(C)C)NC(=O)[C@H](Cc1ccc(O)cc1)NC(=O)[C@H](CCCCN)NC(=O)[C@H](CO)NC(=O)[C@H](Cc1ccc(O)cc1)NC(=O)[C@H](CC(=O)O)NC(=O)[C@H](CO)NC(=O)[C@@H](NC(=O)[C@H](Cc1ccccc1)NC(=O)[C@@H](NC(=O)CNC(=O)[C@H](CCC(N)=O)NC(=O)[C@@H](CO)NC(=O)[C@@H](N)Cc1c[nH]cn1)[C@@H](C)O)[C@@H](C)O)C(=O)N[C@@H](CCCNC(=N)N)C(=O)N[C@@H](CCCNC(=N)N)C(=O)N[C@@H](C)C(=O)N[C@@H](CCC(N)=O)C(=O)N[C@@H](CC(=O)O)C(=O)N[C@@H](Cc1ccccc1)C(=O)N[C@H](C(=O)N[C@@H](CCC(N)=O)C(=O)N[C@@H](Cc1c[nH]c2ccccc12)C(=O)N[C@@H](CC(C)C)C(=O)N[C@@H](CC(C)C)C(=O)N[C@@H](CC(N)=O)C(=O)N[C@H](C(=O)NCC(=O)NCC(=O)N1CCC[C@H]1C(=O)N[C@@H](CO)C(=O)N[C@@H](CO)C(=O)NCC(=O)N[C@@H](C)C(=O)N1CCC[C@H]1C(=O)N1CCC[C@H]1C(=O)N1CCC[C@H]1C(=O)N[C@@H](CO)C(N)=O)[C@@H](C)O)C(C)C)C(=O)O	item: ALT	Sprague-Dawley rat, female	subcutaneous, 100 µg/kg once daily, 14 days	–	serum enzyme activity	26.6 ± 3.7 U/L
CC(C)[C@@H]1NC(=O)CNC(=O)[C@H](CC(N)=O)NC(=O)[C@H](CCCNC(=N)N)NC(=O)[C@H](Cc2ccc(O)cc2)NC(=O)[C@H](C(C)C)NC(=O)[C@@H](NC(=O)[C@@H](NC(=O)[C@H](CC(N)=O)NC(=O)[C@H](Cc2c[nH]c3ccccc23)NC(=O)[C@H](C)NC(=O)[C@H](Cc2ccccc2)NC(=O)CNC(=O)[C@H](CCCCN)NC(=O)[C@H](Cc2ccccc2)NC(=O)[C@H](Cc2ccccc2)NC(=O)[C@H](CCCCN)NC(=O)OCC2c3ccccc3-c3ccccc32)C(C)C)CSSC[C@@H](C(=O)N[C@@H](Cc2c[nH]cn2)C(=O)N[C@@H](CCCNC(=N)N)C(=O)N[C@@H](CCCNC(=N)N)C(=O)N[C@@H](C)C(=O)N[C@@H](CC(N)=O)C(N)=O)NC(=O)[C@H](C(C)C)NC(=O)[C@H](CCCNC(=N)N)NC1=O	–	mouse mammary gland homogenate 50 mg/mL	8.00 h, 37 °C	–	peptide remaining	69.7% and 64.9% and 71%
O=C1NC2(CC2)COc2ncc(F)cc2[C@H]2COCCN2c2ccn3ncc1c3n2	–	Sprague-Dawley rats, male, blood	oral, 2.5 mg/kg/day, end of recovery, 4-week subacute toxicity	–	haematocrit	43.8 ± 1.1%
COc1ccc([C@@H]2CC(=O)c3c(O)cc(O[C@@H]4O[C@H](CO)[C@@H](O)[C@H](O)[C@H]4O[C@@H]4O[C@@H](C)[C@H](O)[C@@H](O)[C@H]4O)cc3O2)cc1O	–	male Sprague-Dawley rats, lean, faeces	oral, 100 mg/kg, 48 to 36 h	–	faecal excretion	14.5 ± 12.2 ng
CC(=O)N[C@H](C(=O)N[C@@H](CCCC(=O)OC(C)(C)C)C(=O)N[C@@H](CCC1CCCCC1)C(=O)N[C@@H](CC(=O)O)C(=O)COC(=O)c1c(C)cccc1C)C(C)(C)C	–	C57BL/6N mouse, female, whole blood	intraperitoneal, dose not given, 0.25 h	–	blood concentration	313 µM
CC(C)C[C@@H](NC(=O)[C@@H](CCCNC(=N)N)NC(=O)[C@@H](Cc1c[nH]cn1)NC(=O)[C@@H](Cc1c[nH]c2ccccc12)NC(=O)[C@@H](Cc1c[nH]cn1)NC(=O)[C@@H](Cc1ccccc1)NC(=O)[C@H](NC(=O)[C@@H](Cc1ccc(O)cc1)NC(=O)CNC(=O)CNC(=O)CCOCCOCCOCCNC(=O)CN1CCN(CC(=O)O)CCN(CC(=O)O)CC1)[C@H](C)O)C(=O)N[C@H](CC(N)=O)C(=O)N1CCC[C@@H]1C(=O)O [gallium-68 labelled]	–	human male, from C57BL/6 mouse, total body	–	–	absorbed dose	0.00982 mSv/MBq
